Assay results of several laboratories.
Each line is one published result; not all experiments were run side by side. “And” joins repeats or separate records; there may be more than shown. ± marks the error that the study gave.

| SMILES | assay | system | setting | half-life |
| --- | --- | --- | --- | --- |
| CCCCCCCCCCC(=O)O[C@H]1CC[C@H]2[C@@H]3CCC4=CC(=O)CC[C@]4(C)[C@H]3CC[C@]12C | item: testosterone | human, plasma | oral, 237 mg testosterone undecanoate, geometric mean | 9.1 h |
| OCc1ncc2n1-c1ccc(Cl)cc1C(c1ccccc1F)=NC2 |  | humans, plasma | 3 mg of midazolam, midazolam alone | 5.4 h |
| O=c1ccc2ncc(=O)n3c2n1C[C@H]3CN1CCC(NCc2cc3c(cn2)OCCC3)CC1 |  | healthy human volunteers, plasma | oral, 1500 mg single dose, arithmetic mean, alone | 11.2 h |
| CC(C)c1nc(N(C)S(C)(=O)=O)nc(-c2ccc(F)cc2)c1/C=C/[C@@H](O)C[C@@H](O)CC(=O)O |  | healthy human subjects, plasma | oral, 20 mg, day 1, alone, geometric mean | 16 h |
| OCc1ncc2n1-c1ccc(Cl)cc1C(c1ccccc1F)=NC2 |  | human, plasma | 7.5 mg midazolam, day 19, arithmetic mean, metabolite of midazolam, added: midazolam 7.5 mg alone | 3.7 h |
| C[C@]1(CO)Cc2ncn(-c3ccc(C#N)c(Cl)c3)c2C(=O)O1 |  | human, plasma | 10 mg single dose, geometric mean | 5.9 h |
| C[C@H](NC(=O)c1c(C(F)F)nn(C)c1Oc1cccc(C(F)(F)F)c1)c1ccc(C(=O)O)cc1 |  | human, plasma | 250 mg, cycle 1 day 8, mean | 8.9 h |
| C[C@@](Cc1ccc(O)c(O)c1)(NN)C(=O)O | item: levodopa | healthy human volunteers, plasma | subcutaneous, 24 h infusion, harmonic mean, crossover | 2.97 h |
| COc1ccc2c(c1)[C@]13CCCC[C@@H]1[C@H](C2)N(C)CC3 |  | human female | 30 mg, day 0 | 15.8 ± 3.19 h |
| Cc1ncc2n1-c1ccc(Cl)cc1C(c1ccccc1F)=NC2 |  | human | intravenous, 3 µg, single bolus, mean | 2.09 h |
| CCN(CC)C(=O)[C@@H]1C=C2c3cccc4[nH]cc(c34)C[C@H]2N(C)C1 |  | human | oral, 100 µg | 3.24 h and 2.87 h and 2.77 h and 3.62 h and 2.64 h and 3.82 h and 3.9 h and 3.31 h |
| CC(=O)c1c(C)c2cnc(Nc3ccc(C4CCN(CCS(C)(=O)=O)CC4)cn3)nc2n(C2CCCC2)c1=O |  | human, plasma | oral, 75 mg twice daily, day 1, single dose, added: letrozole | 6.67 h |

For quick reference, copied from above:
| SMILES | assay | system | setting | half-life |
| --- | --- | --- | --- | --- |
| OCc1ncc2n1-c1ccc(Cl)cc1C(c1ccccc1F)=NC2 |  | humans, plasma | 3 mg of midazolam, midazolam alone | 5.4 h |
